Results from different studies.
Numbers after ± are the reported error.
UniProt P16753, sequence (whole entry, looked up): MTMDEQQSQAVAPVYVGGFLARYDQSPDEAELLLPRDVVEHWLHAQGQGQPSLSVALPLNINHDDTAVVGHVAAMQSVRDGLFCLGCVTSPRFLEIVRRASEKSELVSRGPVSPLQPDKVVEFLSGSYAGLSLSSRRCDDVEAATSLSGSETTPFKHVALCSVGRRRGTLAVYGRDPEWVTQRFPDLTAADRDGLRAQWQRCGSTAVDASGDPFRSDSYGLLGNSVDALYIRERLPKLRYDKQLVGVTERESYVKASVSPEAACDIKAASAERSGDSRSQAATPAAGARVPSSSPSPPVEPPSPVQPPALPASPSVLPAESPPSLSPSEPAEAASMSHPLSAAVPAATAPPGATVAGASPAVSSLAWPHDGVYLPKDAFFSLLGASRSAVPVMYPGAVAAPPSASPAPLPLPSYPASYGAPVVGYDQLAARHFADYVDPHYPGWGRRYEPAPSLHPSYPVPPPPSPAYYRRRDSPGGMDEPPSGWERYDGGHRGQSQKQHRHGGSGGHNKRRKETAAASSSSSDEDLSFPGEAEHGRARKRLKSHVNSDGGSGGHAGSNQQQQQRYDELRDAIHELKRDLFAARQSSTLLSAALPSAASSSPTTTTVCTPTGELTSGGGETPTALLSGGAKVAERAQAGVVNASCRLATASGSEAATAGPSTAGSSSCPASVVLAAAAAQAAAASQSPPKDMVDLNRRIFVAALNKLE
UniProt P28065, sequence (whole entry, looked up): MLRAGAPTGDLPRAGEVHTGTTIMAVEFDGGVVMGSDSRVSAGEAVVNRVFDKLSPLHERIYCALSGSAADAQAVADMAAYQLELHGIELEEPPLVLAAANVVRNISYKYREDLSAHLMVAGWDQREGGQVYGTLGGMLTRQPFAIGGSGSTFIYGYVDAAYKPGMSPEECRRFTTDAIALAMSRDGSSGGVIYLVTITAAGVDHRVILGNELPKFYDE
UniProt P06873, sequence (whole entry, looked up): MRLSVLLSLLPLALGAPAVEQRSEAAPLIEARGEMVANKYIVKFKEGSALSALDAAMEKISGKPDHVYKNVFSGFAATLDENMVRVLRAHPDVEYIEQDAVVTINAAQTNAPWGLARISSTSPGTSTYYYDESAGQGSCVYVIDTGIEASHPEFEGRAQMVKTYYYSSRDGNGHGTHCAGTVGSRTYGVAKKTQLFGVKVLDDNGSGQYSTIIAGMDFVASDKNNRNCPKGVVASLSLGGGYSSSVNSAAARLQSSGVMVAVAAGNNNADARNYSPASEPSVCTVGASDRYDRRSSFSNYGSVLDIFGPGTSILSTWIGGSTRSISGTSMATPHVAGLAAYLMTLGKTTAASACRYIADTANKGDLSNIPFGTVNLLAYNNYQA
UniProt Q9UKV0, sequence (whole entry, looked up): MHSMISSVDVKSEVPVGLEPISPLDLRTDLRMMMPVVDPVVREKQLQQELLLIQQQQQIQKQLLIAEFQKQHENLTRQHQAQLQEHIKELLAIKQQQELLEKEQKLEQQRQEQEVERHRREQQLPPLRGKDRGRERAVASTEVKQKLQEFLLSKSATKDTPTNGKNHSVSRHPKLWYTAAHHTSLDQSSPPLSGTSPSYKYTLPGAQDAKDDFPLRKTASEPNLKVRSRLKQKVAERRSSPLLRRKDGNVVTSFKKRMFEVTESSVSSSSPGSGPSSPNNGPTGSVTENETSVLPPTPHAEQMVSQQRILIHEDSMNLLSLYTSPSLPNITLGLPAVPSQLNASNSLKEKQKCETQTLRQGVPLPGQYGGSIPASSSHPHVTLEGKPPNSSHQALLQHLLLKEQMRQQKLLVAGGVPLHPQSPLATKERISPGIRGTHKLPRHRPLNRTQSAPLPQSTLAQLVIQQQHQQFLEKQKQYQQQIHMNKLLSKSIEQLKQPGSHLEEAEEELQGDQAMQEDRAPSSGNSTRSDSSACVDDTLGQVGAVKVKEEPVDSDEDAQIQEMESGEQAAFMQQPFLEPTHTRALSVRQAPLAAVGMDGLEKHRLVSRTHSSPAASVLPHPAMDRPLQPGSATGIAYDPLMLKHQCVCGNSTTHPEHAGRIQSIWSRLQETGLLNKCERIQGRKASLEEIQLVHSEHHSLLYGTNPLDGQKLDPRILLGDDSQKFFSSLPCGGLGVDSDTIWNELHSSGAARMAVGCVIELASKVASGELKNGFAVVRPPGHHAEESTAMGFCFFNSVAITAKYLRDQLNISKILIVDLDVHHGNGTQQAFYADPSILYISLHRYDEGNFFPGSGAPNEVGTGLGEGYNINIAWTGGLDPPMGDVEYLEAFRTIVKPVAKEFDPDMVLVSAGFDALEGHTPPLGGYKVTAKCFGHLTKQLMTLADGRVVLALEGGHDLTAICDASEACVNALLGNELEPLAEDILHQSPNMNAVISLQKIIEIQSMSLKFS
UniProt P19256, sequence (whole entry, looked up): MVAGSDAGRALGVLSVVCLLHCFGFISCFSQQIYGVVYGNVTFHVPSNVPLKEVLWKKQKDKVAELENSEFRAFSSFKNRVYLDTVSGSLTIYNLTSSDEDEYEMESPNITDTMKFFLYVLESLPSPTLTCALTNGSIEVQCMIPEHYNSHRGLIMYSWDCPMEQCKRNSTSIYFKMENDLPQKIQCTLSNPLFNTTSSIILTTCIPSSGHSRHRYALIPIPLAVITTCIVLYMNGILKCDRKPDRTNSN
UniProt P40306, sequence (whole entry, looked up): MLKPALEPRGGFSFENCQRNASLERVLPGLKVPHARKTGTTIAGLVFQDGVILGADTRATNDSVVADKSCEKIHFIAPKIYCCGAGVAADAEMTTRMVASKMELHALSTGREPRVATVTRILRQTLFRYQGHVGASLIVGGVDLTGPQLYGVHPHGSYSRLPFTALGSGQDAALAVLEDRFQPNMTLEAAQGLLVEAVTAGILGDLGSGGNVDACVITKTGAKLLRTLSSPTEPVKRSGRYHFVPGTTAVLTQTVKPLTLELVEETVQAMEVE
UniProt Q86XQ3, sequence (whole entry, looked up): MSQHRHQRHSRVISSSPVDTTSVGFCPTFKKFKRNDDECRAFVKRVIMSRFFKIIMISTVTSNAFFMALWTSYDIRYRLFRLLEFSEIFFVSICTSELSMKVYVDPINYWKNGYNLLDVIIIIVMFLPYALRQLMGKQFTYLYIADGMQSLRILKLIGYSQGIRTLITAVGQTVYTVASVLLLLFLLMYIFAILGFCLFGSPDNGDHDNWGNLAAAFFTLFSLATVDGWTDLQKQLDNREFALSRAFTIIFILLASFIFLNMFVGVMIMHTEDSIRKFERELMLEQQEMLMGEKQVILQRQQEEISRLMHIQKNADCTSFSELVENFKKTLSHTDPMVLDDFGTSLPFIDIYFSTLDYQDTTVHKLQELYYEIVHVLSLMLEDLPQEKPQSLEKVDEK
UniProt P00740, sequence (whole entry, looked up): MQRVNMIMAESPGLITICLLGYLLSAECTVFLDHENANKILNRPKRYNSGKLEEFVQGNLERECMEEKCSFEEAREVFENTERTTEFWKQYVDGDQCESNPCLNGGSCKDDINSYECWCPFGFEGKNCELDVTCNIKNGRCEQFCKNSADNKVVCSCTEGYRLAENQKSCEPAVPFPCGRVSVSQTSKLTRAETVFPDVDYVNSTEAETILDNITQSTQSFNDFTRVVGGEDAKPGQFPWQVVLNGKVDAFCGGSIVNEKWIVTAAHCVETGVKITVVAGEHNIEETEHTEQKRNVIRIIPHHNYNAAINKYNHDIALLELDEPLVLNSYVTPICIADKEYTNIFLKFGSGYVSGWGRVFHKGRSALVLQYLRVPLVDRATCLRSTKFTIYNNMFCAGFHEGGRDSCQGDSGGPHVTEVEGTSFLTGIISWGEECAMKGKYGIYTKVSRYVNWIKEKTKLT
UniProt Q86YV6, sequence (whole entry, looked up): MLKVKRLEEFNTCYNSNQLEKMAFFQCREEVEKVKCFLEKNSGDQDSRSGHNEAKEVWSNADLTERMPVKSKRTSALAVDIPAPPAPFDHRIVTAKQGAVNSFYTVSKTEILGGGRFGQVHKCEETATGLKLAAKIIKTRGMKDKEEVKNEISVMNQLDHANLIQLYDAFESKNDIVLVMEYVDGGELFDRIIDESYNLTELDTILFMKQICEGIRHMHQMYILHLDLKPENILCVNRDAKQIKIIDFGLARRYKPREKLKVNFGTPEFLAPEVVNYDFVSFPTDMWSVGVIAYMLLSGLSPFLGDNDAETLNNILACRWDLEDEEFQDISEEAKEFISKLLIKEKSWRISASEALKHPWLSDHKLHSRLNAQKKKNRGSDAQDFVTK
UniProt Q9BY41, sequence (whole entry, looked up): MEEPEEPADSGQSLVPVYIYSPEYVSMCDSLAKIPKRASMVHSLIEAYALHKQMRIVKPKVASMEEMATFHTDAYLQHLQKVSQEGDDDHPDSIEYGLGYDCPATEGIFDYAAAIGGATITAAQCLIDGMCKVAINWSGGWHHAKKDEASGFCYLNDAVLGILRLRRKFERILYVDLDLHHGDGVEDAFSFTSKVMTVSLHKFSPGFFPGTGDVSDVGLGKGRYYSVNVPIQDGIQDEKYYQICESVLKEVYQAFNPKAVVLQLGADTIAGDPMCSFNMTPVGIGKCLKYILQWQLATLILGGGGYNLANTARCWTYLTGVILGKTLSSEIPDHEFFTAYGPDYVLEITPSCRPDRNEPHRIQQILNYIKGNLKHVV
UniProt P30838, sequence (whole entry, looked up): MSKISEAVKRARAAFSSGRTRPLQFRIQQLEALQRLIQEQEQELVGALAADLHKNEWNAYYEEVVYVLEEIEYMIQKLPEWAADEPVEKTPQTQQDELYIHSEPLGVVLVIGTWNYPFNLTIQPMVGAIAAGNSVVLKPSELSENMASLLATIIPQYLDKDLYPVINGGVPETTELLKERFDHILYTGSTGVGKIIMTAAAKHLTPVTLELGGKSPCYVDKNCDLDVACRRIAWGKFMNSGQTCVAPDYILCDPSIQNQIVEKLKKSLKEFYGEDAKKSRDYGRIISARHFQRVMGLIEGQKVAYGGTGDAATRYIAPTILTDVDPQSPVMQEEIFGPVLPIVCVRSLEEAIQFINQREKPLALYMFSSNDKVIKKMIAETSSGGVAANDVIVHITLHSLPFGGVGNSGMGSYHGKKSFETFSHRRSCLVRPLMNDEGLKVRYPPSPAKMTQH

For `C=C(NC(=O)C(=C)NC(=O)c1csc(C2=NC3c4csc(n4)C4NC(=O)c5csc(n5)C(C(C)(O)C(C)O)NC(=O)C5CSC(=N5)C(=CC)NC(=O)C(C(C)O)NC(=O)c5csc(n5)C3(CC2)NC(=O)C(Cc2ccccc2)NC(=O)C(=C)NC(=O)C(C)NC(=O)C(C(C)CC)NC2C=Cc3c(C(C)O)cc(nc3C2O)C(=O)OC4C)n1)C(N)=O` (stereo not shown), the IC50 was 270 ± 50 nM (PSMB6 (Homo sapiens, UniProt P28072); caspase-like activity, inhibitor; purified 20S proteasome; 15 min preincubation, 37 °C, added: Ac-Nle-Pro-Nle-Asp-AMC substrate).
`CC(C)C[C@H](NC(=O)[C@H](CC(N)=O)NC(=O)[C@H](CC(C)C)NC(=O)[C@@H](NC(=O)[C@@H](NC(=O)[C@@H]1CCCN1C(=O)[C@H](CCCNC(=N)N)NC(=O)[C@H](CCCCN)NC(=O)[C@@H]1CCCN1)[C@@H](C)O)[C@@H](C)O)C(=O)N[C@@H](Cc1ccccc1)C(=O)NCCCCCC(=O)N[C@@H](CCCNC(=N)N)C(=O)N[C@@H](CCCNC(=N)N)C(=O)N[C@@H](CCCNC(=N)N)C(=O)N[C@@H](CCCNC(=N)N)C(=O)N[C@@H](CCCNC(=N)N)C(=O)N[C@@H](CCCNC(=N)N)C(=O)N[C@@H](CCCNC(=N)N)C(=O)N[C@@H](CCCNC(=N)N)C(=O)N[C@@H](CCCNC(=N)N)C(N)=O` gave an IC50 of 206000 nM (Mapk1 (Rattus norvegicus, UniProt P63086); enzyme activity, inhibitor, radiometric; pH 7.5).
`CCCC[C@H](NC(=O)CNC(=O)CNC(=O)CN1CCN(CC(=O)O)CCN(CC(=O)O)CCN(CC(=O)O)CC1)C(=O)N[C@H]1CC(=O)NCCCC[C@@H](C(N)=O)NC(=O)[C@H](Cc2c[nH]c3ccccc23)NC(=O)[C@H](CCCNC(=N)N)NC(=O)[C@@H](Cc2ccccc2)NC(=O)[C@H](Cc2c[nH]cn2)NC1=O` [lutetium-177 labelled] has a tissue uptake of 15.8 ± 1.45 %ID/g (C57 mouse, female, tumour; intravenous, 0.037 MBq, 4 h).
For `CC1(C)C2CC3C(c4ccccc4)c4c(O)c(C=O)c(O)c(C=O)c4OC3(C)C1C2` (single isomer, unassigned; (+)), the IC50 was > 100000 nM (Lysophosphatidylserine lipase ABHD12 (Homo sapiens, UniProt Q8N2K0, K373R); lysophosphatidylserine hydrolysis, inhibitor, LC-MS; HEK293T cell lysate; mutant).
`COc1cc(O)cc(-c2cc3cc(O)c(OC)cc3o2)c1` gave an IC50 of 469000 ± 16600 nM (α-glucosidase; inhibitor, spectrophotometric; pH 6.8, 37 °C, added: 4-nitrophenyl α-D-glucopyranoside).
For `CN(C)CCSC(=S)N1CCN(C(=O)/C=C/c2coc3ccccc3c2=O)CC1`, the protective effect was 60.8 ± 3.9% (tomato spotted wilt virus; viral infection, half-leaf method; Nicotiana glutinosa; 500 µg/mL).
For `Cc1cccc(-c2cccc(C)n2)n1.Cc1cccc(-c2cccc(C)n2)n1.[Cl-].[Cl-].[Ru+2].c1ccc(-c2ccnc3c2ccc2c(-c4ccccc4)ccnc23)cc1`, the EC50 was < 7800 nM (DNA binding, agarose gel electrophoresis; pUC19 plasmid DNA; photoactivated 40 J/cm^2, λ>400 nm, added: pUC19 40 µg/mL).
With `O=C(Nc1ccc(-c2nc(-c3ccccc3)cs2)cc1)C1CCN(CC2CCCCC2)CC1` the IC50 was 37.6 nM (FAAH (Homo sapiens, UniProt O00519); enzyme activity, inhibitor, fluorescence; pH 8, with preincubation).
The IC50 of `O=C(c1cccc(S(=O)(=O)N2CCc3ccccc3C2)c1)N1CCC(OCc2ccccc2)CC1` is reported as > 30000 nM (SCN5A (Homo sapiens, UniProt Q14524); ion current, inhibitor, patch clamp).
Under “cells with one aberration”, `CCC(=O)N(C)c1ccc(Cl)c(Cl)c1` is recorded as 0% (CHO-WBL; 0.032 mg/mL, 3 h, without S9 activation).
`C=CC(=O)Nc1cc(Nc2nccc(-c3cn(C)c4ccccc34)n2)c(OCC(F)(F)F)nc1N(C)CCN(C)C` gave a remaining compound of 95% (Cytochrome P450 2E1 (CYP2E1, Homo sapiens, UniProt P05181); substrate, LC-MS; recombinant enzyme; 3 µM, 60 min).
`CCN(CC)CCCSC(=S)N1CCN(C(=O)/C=C/c2coc3cc(F)ccc3c2=O)CC1` has an inactivation effect of 58.2 ± 5.3% (tomato spotted wilt virus; viral infection, half-leaf method; Nicotiana glutinosa; 500 µg/mL).
The IC50 of `CC[C@H](C)[C@@H]1NC(=O)[C@@H]2CCCN2C(=O)[C@@H]2CCCN2C(=O)[C@H]([C@@H](C)CC)NC(=O)[C@H](CO)NC(=O)[C@H](CCCCN)NC(=O)[C@H]([C@@H](C)O)NC(=O)[C@@H]2CSSC[C@H](NC1=O)C(=O)N[C@@H](Cc1ccccc1)C(=O)N1CCC[C@H]1C(=O)N[C@@H](CC(=O)O)C(=O)NCC(=O)N[C@@H](CCCNC(=N)N)C(=O)N2` is reported as > 100000 nM (Lymphocyte function-associated antigen 3 (CD58, Homo sapiens, UniProt P19256); Jurkat adhesion to OVCAR-3 cells; Jurkat, OVCAR-3; 1 h).
With `O=C(O)c1ccc(Nc2nc(-c3ccc(Cl)c(Cl)c3)cs2)cc1` the IC50 was 47500 nM (Capsid scaffolding protein, protease domain (assemblin) (Human cytomegalovirus, UniProt P16753); protease activity, inhibitor; added: ACC tetrapeptide substrate).
Under “beta elimination rate constant”, `N=C(N)NCCC[C@@H]1NC(=O)[C@H](Cc2c[nH]c3ccccc23)NC(=O)[C@@H](CC2CCCCC2)NC(=O)[C@@H]2CCCN2C(=O)[C@@H](NC(=O)CCc2ccccc2)CCCNC1=O` is recorded as 0.33 h⁻¹ (C57BL/6J mouse, spinal cord; oral, 1 mg/kg, single dose, two-compartment model).
For `CN(C)c1nc(N)c(C(=O)Nc2cccnc2)nc1Cl`, the IC50 was > 100000 nM (CatSper channel complex (Homo sapiens, UniProt Q7RTX7+Q86XQ3+Q8NEC5+Q96P56); calcium influx, inhibitor, FLIPR; human sperm; added: 3 µM progesterone).
The IC50 of `O=c1c2ccccc2sn1-c1ccccc1` is reported as 1700 nM (HDAC9 (Homo sapiens, UniProt Q9UKV0); enzyme activity, inhibitor).
With `O=C(NC(=S)Nc1nc(-c2ccccc2)cc(-c2ccc(Br)cc2)n1)c1ccccc1` the IC50 was 1790 ± 79 nM (Proteinase K (PROK, Engyodontium album, UniProt P06873); inhibitor).
`O=Cc1c(O)ccc2ccccc12`: “log2 fold change” 5.26 (HUVEC; RNA sequencing, refers to: BEX2; 75 µM, 24 h; baseline: DMSO).
With `O=C(CCCCCCN(Cc1ccccc1)Cc1ccccc1)NO` the IC50 was 4000 nM (HDAC8 (Homo sapiens, UniProt Q9BY41); enzyme activity, inhibitor, fluorescence).
`Cc1ccc(Nc2nc(SCc3cn(CC(=O)NC(=O)Nc4ccccn4)nn3)nc(-c3ccc(C(C)C)cc3)c2C#N)cc1` gave an IC50 of 384 nM (KDM1A (Homo sapiens, UniProt O60341); enzyme activity, inhibitor, fluorescence).
`N=C(N)NCCCC(N)C(=O)NCC(=O)NC(CCCCNC(=N)NCCCSCC1OC(n2cnc3c(N)ncnc32)C(O)C1O)C(N)=O` (stereo not shown) gave an IC50 of 3400 ± 300 nM (Protein arginine N-methyltransferase 7 (PRMT7, Trypanosoma brucei brucei, UniProt Q582G4); enzyme activity, inhibitor, SAHH-coupled fluorescence; added: SAM and peptide at Km).
For `NC[C@@H](C(=O)Nc1ccc(-c2cn[nH]c2)cc1)c1ccccc1`, the IC50 was 31.7 nM (MYLK4 (Homo sapiens, UniProt Q86YV6); binding, LanthaScreen).
`N[C@@H](CCC(=O)N[C@@H](CS[Se]Cc1ccc(C(=O)Nc2cc(C(F)(F)F)c(Br)c(C(F)(F)F)c2)cc1)C(=O)NCC(=O)O)C(=O)O` gave an IC50 of > 100000 nM (PTPN2 (Homo sapiens, UniProt P17706); enzyme activity, inhibitor; added: pNPP, GSH 1 mM).
`Cc1ccc(CNC(=O)[C@H](CCc2ccccc2)NC(=O)[C@H](CCc2ccccc2)NC(=O)Cc2cccc(Oc3ccccc3)c2)cc1` gave an IC50 of > 100000 nM (Proteasome subunit beta type-9 / Proteasome subunit beta type-10 (Homo sapiens, UniProt P28065+P40306); inhibitor).
`CCC(NC(=O)C(CC(C)C)NC(=O)CCc1ccccc1)C(=O)C(=O)NCc1cccc(OC)c1` (stereo not shown) gave an IC50 of 2050 nM (Calpain-1 catalytic subunit (Capn1, Mus musculus, UniProt O35350); enzyme activity, inhibitor; mouse pons-cerebellum membranes; added: calcium 20 µM).
`CC(C)CCn1c(OC2CCN(C(=O)C3CC3)CC2)nc2c1c(=O)n(C)c(=O)n2C` has an IC50 of > 57000 nM (ALDH3A1 (Homo sapiens, UniProt P30838); enzyme activity, inhibitor).
The IC50 of `N=C(N)NCCC[C@H](NC(=O)[C@H](CC(=O)O)NC(=O)[C@@H]1CSCCCC(=O)NCC(=O)N[C@@H](Cc2c[nH]cn2)C(=O)N[C@H](Cc2ccccc2)C(=O)N[C@@H](CCCNC(=N)N)C(=O)N[C@H](Cc2c[nH]c3ccccc23)C(=O)N1)C(=O)N[C@@H](Cc1ccccc1)C(=O)NCC(N)=O` is reported as 1300 nM (MC5R (Homo sapiens, UniProt P33032); binding).
`C=CC(=O)N1CCc2ccc(-n3c(=O)ccc4cnc5ccc(-c6cnn(C)c6)cc5c43)cc21` has an IC50 of > 10000 nM (FRK (Homo sapiens, UniProt P42685); enzyme activity, inhibitor).
With `[64Cu+2].c1cnc(CNCc2ccc(CN3CCCN4CCNCCCN(CC4)CC3)cc2)nc1` the tissue uptake was 0.64 ± 0.05 %ID/g (CXCR4; NOD/SCID mouse, U87 and U87-stb-CXCR4 xenografts, blood; iv, 90 min, no blocking dose, ex vivo).
`COC1OC(C)C(OS(=O)(=O)O)C(OC2OC(C)C(OS(=O)(=O)O)C(OC3OC(C)C(OS(=O)(=O)O)C(OC4OC(C)C(OS(=O)(=O)O)C(OC5OC(C)C(OS(=O)(=O)O)C(OC6OC(C)C(OS(=O)(=O)O)C(OC7OC(C)C(OS(=O)(=O)O)C(OC8OC(C)C(OS(=O)(=O)O)C(OS(=O)(=O)O)C8OS(=O)(=O)O)C7OS(=O)(=O)O)C6OS(=O)(=O)O)C5OS(=O)(=O)O)C4OS(=O)(=O)O)C3OS(=O)(=O)O)C2OS(=O)(=O)O)C1OS(=O)(=O)O` (stereo not shown) has an IC50 of 2.89 nM (Coagulation factor IX, factor IXa with VIIIa (F9, Homo sapiens, UniProt P00740); intrinsic tenase activity, chromogenic).
The tissue uptake of `[64Cu+2].c1ccc(CNCc2ccc(CN3CCCN4CCNCCCN(CC4)CC3)cc2)nc1` is reported as 6.7 ± 2.72 %ID/g (CXCR4 (human); NOD/SCID mice, U87 xenografts, small intestine; 30 min post-injection).
For `CN(C)C(=O)C1CCCN(C(=O)c2ccc(NC(=O)NC34CC5CC(C)(CC(C)(C5)C3)C4)cc2)C1` (stereo not shown), the IC50 was 0.37 nM (EPHX2 (Homo sapiens, UniProt P34913); enzyme activity, inhibitor).
`CN1C(=O)[C@@H](Cc2ccc(O)cc2)NC(=O)CNC(=O)[C@H](Cc2ccc3ccccc3c2)NC(=O)[C@H](CCCNC(=N)N)NC(=O)[C@H]1CCCNC(=O)c1ccc(CNC(=O)CN2CCN(CC(=O)O)CCN(CC(=O)O)CCN(CC(=O)O)CC2)cc1` [gallium-68 labelled] gave a tissue uptake of 2.4 ± 0.9 %ID/g (SCID mice, lymphoma xenograft, kidneys; intravenous, 2 h).
